Measurements from different studies.
Numbered parts are unrelated; each lists some results of a single study. Substitutions count along the parent as printed.

Series 1
Target: Prothrombin, mature alpha-thrombin (F2, Homo sapiens, UniProt P00734)
Technique: aptamer microarray, sandwich
Molecule type: DNA with 2'F-ANA
Sample: in vitro
Concentration: 200 nM
Notes: whole 15-mer aptamer, many near background
With: Cy3 exosite-II aptamer, 400 nM
Reading: higher = stronger binding
Strand: GGTTGGTGTGGTTGG
| Modification | mean fluorescence intensity [a.u.] |
| --- | --- |
| 2'F-ANA at 1 5 6 8 9 10 12 13 14 | 45 |
| 2'F-ANA at 1 3 7 8 | 420 |
| 2'F-ANA at 4 5 8 13 15 | 52.8 |
| 2'F-ANA at 2 4 5 8 9 11 | 107 |
| 2'F-ANA at 1 5 9 12 15 | 129 |
| 2'F-ANA at 3 5 8 9 10 11 14 15 | 60.5 |
| 2'F-ANA at 2 4 5 7 10 11 13 14 | 49.6 |
| 2'F-ANA at 5 6 7 13 | 53.2 |
| 2'F-ANA at 1 2 3 4 8 9 11 12 13 14 | 65.6 |
| 2'F-ANA at 2 6 7 8 10 11 15 | 100 |
| 2'F-ANA at 1 2 4 6 10 12 14 | 47 |
| 2'F-ANA at 2 3 5 6 7 8 11 12 14 15 | 57.1 |
| 2'F-ANA at 1 2 3 4 5 6 8 10 11 13 | 47.4 |
| 2'F-ANA at 5 7 8 9 10 12 14 15 | 49.3 |
| 2'F-ANA at 1 2 4 8 9 12 15 | 333 |
| 2'F-ANA at 2 5 9 11 12 14 15 | 47.5 |
| 2'F-ANA at 3 5 7 8 10 12 | 86 |
| 2'F-ANA at 1 9 10 11 12 13 | 64.3 |
| 2'F-ANA at 1 10 13 15 | 54.1 |
| 2'F-ANA at 3 4 7 8 10 11 13 | 332 |
| 2'F-ANA at 1 3 4 5 7 8 10 14 | 55.6 |
| 2'F-ANA at 1 2 3 4 5 6 10 11 12 | 72.5 |
| 2'F-ANA at 1 2 6 7 8 9 10 11 13 15 | 51.4 |
| 2'F-ANA at 1 6 11 12 | 322 |
| 2'F-ANA at 4 6 7 14 15 | 88.6 |

Series 2
Target: RNA binding protein fox-1 homolog 2, RRM domain, GST-SBP tag (RBFOX2, Homo sapiens, UniProt O43251-10, residues 100-194)
Technique: RNA Bind-n-Seq
Molecule type: RNA
Sample: in vitro
Concentration: 365 nM
Notes: natural RNA segment, single round, ends assumed
Baseline: no-protein control
Reading: higher = stronger binding
Residues (chain): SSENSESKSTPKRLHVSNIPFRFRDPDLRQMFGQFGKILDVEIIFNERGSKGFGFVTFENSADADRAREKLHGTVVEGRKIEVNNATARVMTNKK
| Strand | RBNS enrichment (R) |
| --- | --- |
| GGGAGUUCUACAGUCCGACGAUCUCUCAUGUAUCGUAGAUUGGCCUUUAAGUCACUUUACCAAGGAUGAUCUUUGAACUCCUGAGUACAGACUGCGGGUGUGUGCUACCAUGCUUUAUGUGGCCCUGGGUUCAUGGAAUUCUCGGGUGCCAA | 0.327 |
| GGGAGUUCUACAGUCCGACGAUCACAUUUUUCAUGUUAAAGAGCCGUGUCUCCCGCCAGCACUCCUCACCCCGGUAUGAAUGUGUUUCCUCCACAUUGUAUAUCCUUCCACCCUCUGGCUGCCUAGAUCAGUAUGGAAUUCUCGGGUGCCAA | 0.568 |
| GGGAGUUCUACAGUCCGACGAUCUAAAUGAAGGGCCAGCAUAUAUACUUGCAAGAUAAUUUUCAGCUGCAAGGAUUCAGCACCAGUUAUGUUUGAAUGAACCCUCCUUUUCUCUGAGAUUCUGGUCCCUGGAAUGGAAUUCUCGGGUGCCAA | 0.803 |
| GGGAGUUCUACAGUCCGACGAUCCGCUAUCUGUUCCCUCACACAGUCGCUAAGUGGUCAAAUUGGUGCUUGAAAUUCAUUGGUCUAGUUGUAAUUUUUAUACAAAUUACACCAAGAGAUAAGAUGUCUUUUUUUGGAAUUCUCGGGUGCCAA | 0.593 |
| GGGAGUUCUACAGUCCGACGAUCCGAAAGUAAUACUCUGCACCCCUUCCUACAAAGAUGAUAAAGCAGUCACUUCUGGCGCAUUUUAAUAAUUUAAAGAUUUUUAGUGCAAUGGCACGGUAACCUCCAAACCUUGGAAUUCUCGGGUGCCAA | 0.216 |
| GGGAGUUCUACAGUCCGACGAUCACAUGCCAAGAUUCUCAUGAGUUUUCUUACUUUGUCAUCCAUGUUCUUUUUCUAUUUGUAGGUCAAAGACAAGUGCCUUCUAUGGCAUGGGAAAGGGCUUUAUUCUUAUAUGGAAUUCUCGGGUGCCAA | 0.435 |
| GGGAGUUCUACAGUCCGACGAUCCAUCCGUAAUGAGAUCUGAUGCCCUCUUCUGGUGUGUCUGAAGAGAGCUACAGUGUACUCAUAUAAAUAAAAUAAUAAAUCUUUAAAAAAAAAUUCCUUUAACCCAAUUGUGGAAUUCUCGGGUGCCAA | 1.34 |
| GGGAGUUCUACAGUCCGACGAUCUGAGAAAUGGUGUAUGAUGCCUGGUGGUGGUAGGGGUGCGUAUUGAAACCCAGCGCGCAGUUCUCUUCUGUCAGCUUGUUUUUUUUAGAGUAAAAGGAAGAGAAAUAAAAUGGAAUUCUCGGGUGCCAA | 1.93 |
| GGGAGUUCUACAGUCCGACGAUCAACUGGACUGUGAGUCUCUUGGUUCAGUAUUAGGUUCACUUUAUUUAUACUGUAAGUUAUUUUACUUCCCCUGGGACCCUUUCCAGUCCUCGUUUUACAUUCAUUCCUCUUGGAAUUCUCGGGUGCCAA | 0.65 |
| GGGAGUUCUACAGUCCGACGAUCAUAGAAAGACUAACUAGGGAACAACAAGGCCACAAACAAGCCACCUGGCACAGCAGCCUUCUACUCAUCCACUGCAUGACCCGGAGGCUAGGAGAGCCUGGGCUUCCUCCUGGAAUUCUCGGGUGCCAA | 2.3 |
| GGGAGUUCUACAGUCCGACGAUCUGGCUAAAGCCAGGAAGUAAGGGACACGAACUCAUUAGACUAUAACUUGAACUGAGUUGCAUCUCAUUUUCUUCUGUAAAAACAAUUACAGUAGCACAUUAAUUUAAAUCUGGAAUUCUCGGGUGCCAA | 0.904 |
| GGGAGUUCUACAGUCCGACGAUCGGGAGCAGCUGCAGCCCCUGACUUGUCUGGGGGGAUGUUUAGGAUAUGACAGAGGUUAGAGUCAGUACUGUUGGCGUAAGGAUUUCAUCUUUGGAACACAGGGUAUGCCUUGGAAUUCUCGGGUGCCAA | 0.955 |

Series 3
Target: ABI1, truncated, D143A, DHFR fusion (Arabidopsis thaliana)
Technique: DHFR PCA, deep sequencing
Sample: yeast
Notes: methotrexate growth selection, single substitutions
With: (+)-ABA 58 µM
Baseline: wild-type fitted maximum
Reading: higher = stronger binding
Starting sequence: PYL1, truncated, DHFR fusion (Arabidopsis thaliana); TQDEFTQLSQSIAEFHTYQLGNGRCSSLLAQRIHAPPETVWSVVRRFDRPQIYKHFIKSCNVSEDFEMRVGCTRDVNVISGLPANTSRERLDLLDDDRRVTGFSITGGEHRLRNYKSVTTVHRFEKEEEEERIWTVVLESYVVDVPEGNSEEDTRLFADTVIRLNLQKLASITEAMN
| Substitution | relative binding score |
| --- | --- |
| L93N | 52.9% |
| F56D | -4.22% |
| L29F | 27.2% |
| Y18S | 71.4% |
| S87G | -9.42% |
| E174G | 63% |
| F66Q | 79.7% |
| E67W | 70% |
| I12Q | 38.1% |
| A158V | 93.2% |
| D3V | 76.6% |
| R32L | 78.1% |
| S26Q | 67.9% |
| E139S | 68.8% |
| R132K | 100% |

Series 4
Target: CCNB1, cyclin fold, Cln2 fusion (human)
Technique: yeast growth competition, sequencing
Sample: yeast
Notes: strong parent motif
Baseline: not given
Reading: higher = stronger binding
Starting sequence: BRCA2 docking peptide (human); PSIKRNLLNEFDR; partner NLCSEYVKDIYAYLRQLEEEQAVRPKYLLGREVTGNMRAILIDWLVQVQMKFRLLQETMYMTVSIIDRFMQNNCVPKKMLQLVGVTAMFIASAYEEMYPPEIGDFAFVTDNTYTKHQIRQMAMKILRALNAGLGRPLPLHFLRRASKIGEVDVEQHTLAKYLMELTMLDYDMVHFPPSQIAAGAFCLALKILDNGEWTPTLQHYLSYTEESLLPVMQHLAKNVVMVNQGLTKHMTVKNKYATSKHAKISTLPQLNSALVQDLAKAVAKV
| Substitution | normalised enrichment score |
| --- | --- |
| F11A | 1.52 |
| R13K | 2.25 |
| F11E | 0.0551 |
| S2N | 2 |
| D12W | 1.89 |
| S2C | 1.98 |
| R5I | 1.87 |
| L8Q | 0.0308 |
| N9R | 2.16 |
| N9P | 3.21 |
| L8D | 0.608 |
| P1F | 1.6 |
| D12C | 1.57 |

Series 5
Target: Interferon regulatory factor 7, full length, phosphomimetic (IRF7, Homo sapiens, UniProt Q92985, residues 1-503, S471D/S472D/S475D/S476D/S477D/S483D/S484D/S487D)
Technique: protein-binding microarray
Molecule type: double-stranded DNA, one strand shown
Sample: in vitro
Concentration: 2200 nM top
Notes: 60-bp whole probe
With: salmon DNA 0.4 mg/ml
Baseline: random background probes
Reading: higher = stronger binding
Constant ends, left off below: GCCTAGCAC … GTCTTGATTCGCTTGACGCTGCTG
Target sequence (chain): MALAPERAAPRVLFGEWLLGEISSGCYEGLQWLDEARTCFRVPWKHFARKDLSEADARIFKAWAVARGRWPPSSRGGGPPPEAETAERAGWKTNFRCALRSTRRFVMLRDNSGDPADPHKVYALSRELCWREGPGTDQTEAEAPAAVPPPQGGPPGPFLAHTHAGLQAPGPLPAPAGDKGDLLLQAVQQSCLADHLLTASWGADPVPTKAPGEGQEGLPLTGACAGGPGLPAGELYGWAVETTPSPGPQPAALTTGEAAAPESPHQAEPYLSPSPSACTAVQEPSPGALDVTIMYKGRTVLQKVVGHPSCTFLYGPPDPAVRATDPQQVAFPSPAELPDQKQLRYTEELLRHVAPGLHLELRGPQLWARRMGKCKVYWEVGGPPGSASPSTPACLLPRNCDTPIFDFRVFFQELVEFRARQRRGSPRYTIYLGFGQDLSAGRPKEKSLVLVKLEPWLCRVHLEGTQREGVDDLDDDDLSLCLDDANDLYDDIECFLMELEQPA
| Strand | fitted relative affinity |
| --- | --- |
| TCATTTTTAGCTTGCAAACTGTGCTAG | 1.13 z-score |
| TTGTGTTTGTCCCTATTTAAGTGCTAG | 2.27 z-score |
| CCAAGTCTTGTTTTACAATTGTGCTAG | 1.26 z-score |
| TTAGATATCAGACTTGATTAGTGCTAG | -0.44 z-score |
| TCAAGAAAGTGAAATACCACTGTGCTA | -0.794 z-score |
| TCAACTTGTCTTTTCATACTGTGCTAG | 1.56 z-score |
| TTAGGTTTCCTTATCCTCTAGTGCTAG | 2.39 z-score |
| TGTTTTTCATTTTTTTTCATGTGCTAG | 3.42 z-score |
| TTAGGACTCGGGTATCGGTTAGTGCTA | 0.508 z-score |
| TTAGATTTCAGTTTCAATTAGTGCTAG | 2.74 z-score |
| TTAGGTCTCCTACTTCTTTAGTGCTAG | 0.877 z-score |
| GTCGAACTGAGTCTCGAGACGTGCTAG | 0.378 z-score |
| GACGGTTTCGACACTGGCGACGTGCTA | 2.5 z-score |
| GTAGGTTTCCTTCTCCTTTAGTGCTAG | 2.55 z-score |
| GACGGTATGCTTCTCCTGACGTGCTAG | 0.724 z-score |
| TTAGGTATCCTTCTCCTATAGTGCTAG | 1.08 z-score |

Excerpt of the above (series 4):
| Substitution | normalised enrichment score |
| --- | --- |
| D12C | 1.57 |
| D12W | 1.89 |
| P1F | 1.6 |
| S2N | 2 |
| R13K | 2.25 |
| N9R | 2.16 |
| F11A | 1.52 |
| F11E | 0.0551 |
| L8Q | 0.0308 |
| R5I | 1.87 |
| S2C | 1.98 |
| L8D | 0.608 |
| N9P | 3.21 |
